Measured values from different studies.
Protocols differ between the studies behind these lines. Values joined by “and” are separate records of one study, mostly repeats; a detail may differ. ± gives the spread as reported.
GP1 NS5 methyltransferase domain: Genome polyprotein, NS5 methyltransferase domain (GP1, West Nile virus, UniProt Q9Q6P4)
qscR ligand-binding domain: qscR, ligand-binding domain (Pseudomonas aeruginosa, UniProt G3XD77)
BCL6: B-cell lymphoma 6 protein (BCL6, Homo sapiens, UniProt P41182)
NR1H3: Oxysterols receptor LXR-alpha (NR1H3, Homo sapiens, UniProt Q13133)
Chain of UniProt Q13133 (whole entry, looked up): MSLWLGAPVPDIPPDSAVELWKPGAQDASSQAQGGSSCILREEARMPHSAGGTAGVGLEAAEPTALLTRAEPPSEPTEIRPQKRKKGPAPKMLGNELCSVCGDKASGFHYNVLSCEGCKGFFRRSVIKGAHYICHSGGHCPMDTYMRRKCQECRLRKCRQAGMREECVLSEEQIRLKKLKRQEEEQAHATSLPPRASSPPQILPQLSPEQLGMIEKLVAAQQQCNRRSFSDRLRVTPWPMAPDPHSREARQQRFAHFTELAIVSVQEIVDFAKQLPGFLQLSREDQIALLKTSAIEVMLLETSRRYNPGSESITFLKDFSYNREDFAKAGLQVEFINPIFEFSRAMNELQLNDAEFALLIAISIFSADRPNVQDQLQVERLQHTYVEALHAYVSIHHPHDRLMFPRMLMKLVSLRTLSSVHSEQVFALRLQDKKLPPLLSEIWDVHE
HRH2: Histamine H2 receptor (HRH2, Homo sapiens, UniProt P25021)
Chain of UniProt P25021 (whole entry, looked up): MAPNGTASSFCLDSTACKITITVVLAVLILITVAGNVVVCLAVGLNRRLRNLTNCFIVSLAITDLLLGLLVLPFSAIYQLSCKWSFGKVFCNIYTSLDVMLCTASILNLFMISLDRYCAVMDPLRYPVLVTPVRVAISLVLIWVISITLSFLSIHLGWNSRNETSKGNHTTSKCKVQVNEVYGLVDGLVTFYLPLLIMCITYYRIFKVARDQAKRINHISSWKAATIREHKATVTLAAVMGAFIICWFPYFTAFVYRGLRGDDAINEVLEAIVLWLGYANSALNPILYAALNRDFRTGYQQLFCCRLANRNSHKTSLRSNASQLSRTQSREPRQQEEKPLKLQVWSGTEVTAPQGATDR
Chain of UniProt Q99572 (whole entry, unmodified, looked up): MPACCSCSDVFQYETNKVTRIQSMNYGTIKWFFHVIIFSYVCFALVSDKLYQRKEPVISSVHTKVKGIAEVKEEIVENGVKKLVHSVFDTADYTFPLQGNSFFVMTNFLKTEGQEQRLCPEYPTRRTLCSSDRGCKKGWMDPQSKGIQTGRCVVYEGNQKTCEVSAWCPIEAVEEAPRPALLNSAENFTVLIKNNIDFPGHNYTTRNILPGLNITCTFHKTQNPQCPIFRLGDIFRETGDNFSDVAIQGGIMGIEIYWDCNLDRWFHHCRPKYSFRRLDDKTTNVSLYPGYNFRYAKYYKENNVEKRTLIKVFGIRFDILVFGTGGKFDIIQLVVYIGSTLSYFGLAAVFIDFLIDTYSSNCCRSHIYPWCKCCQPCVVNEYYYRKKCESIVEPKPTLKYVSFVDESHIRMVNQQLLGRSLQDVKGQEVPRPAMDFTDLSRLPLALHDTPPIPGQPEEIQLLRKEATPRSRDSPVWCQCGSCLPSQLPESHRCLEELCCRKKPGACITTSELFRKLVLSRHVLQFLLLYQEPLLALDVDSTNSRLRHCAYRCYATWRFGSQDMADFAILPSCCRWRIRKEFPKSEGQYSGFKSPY
Chain of UniProt P51449 (whole entry, looked up): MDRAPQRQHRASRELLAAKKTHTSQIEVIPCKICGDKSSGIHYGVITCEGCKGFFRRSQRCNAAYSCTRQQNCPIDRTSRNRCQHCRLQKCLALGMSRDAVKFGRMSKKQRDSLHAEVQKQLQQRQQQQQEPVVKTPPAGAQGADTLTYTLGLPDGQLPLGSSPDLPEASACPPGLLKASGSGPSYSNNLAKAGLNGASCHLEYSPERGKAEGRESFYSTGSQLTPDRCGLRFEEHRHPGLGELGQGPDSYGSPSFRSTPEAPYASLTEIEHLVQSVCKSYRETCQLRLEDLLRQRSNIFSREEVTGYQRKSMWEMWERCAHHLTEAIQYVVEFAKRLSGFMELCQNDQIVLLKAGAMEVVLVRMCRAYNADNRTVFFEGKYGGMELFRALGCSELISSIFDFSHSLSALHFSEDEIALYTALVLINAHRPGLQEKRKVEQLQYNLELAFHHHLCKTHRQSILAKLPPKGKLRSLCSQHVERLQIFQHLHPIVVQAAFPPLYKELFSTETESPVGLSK
Chain of UniProt Q12809 (whole entry, looked up): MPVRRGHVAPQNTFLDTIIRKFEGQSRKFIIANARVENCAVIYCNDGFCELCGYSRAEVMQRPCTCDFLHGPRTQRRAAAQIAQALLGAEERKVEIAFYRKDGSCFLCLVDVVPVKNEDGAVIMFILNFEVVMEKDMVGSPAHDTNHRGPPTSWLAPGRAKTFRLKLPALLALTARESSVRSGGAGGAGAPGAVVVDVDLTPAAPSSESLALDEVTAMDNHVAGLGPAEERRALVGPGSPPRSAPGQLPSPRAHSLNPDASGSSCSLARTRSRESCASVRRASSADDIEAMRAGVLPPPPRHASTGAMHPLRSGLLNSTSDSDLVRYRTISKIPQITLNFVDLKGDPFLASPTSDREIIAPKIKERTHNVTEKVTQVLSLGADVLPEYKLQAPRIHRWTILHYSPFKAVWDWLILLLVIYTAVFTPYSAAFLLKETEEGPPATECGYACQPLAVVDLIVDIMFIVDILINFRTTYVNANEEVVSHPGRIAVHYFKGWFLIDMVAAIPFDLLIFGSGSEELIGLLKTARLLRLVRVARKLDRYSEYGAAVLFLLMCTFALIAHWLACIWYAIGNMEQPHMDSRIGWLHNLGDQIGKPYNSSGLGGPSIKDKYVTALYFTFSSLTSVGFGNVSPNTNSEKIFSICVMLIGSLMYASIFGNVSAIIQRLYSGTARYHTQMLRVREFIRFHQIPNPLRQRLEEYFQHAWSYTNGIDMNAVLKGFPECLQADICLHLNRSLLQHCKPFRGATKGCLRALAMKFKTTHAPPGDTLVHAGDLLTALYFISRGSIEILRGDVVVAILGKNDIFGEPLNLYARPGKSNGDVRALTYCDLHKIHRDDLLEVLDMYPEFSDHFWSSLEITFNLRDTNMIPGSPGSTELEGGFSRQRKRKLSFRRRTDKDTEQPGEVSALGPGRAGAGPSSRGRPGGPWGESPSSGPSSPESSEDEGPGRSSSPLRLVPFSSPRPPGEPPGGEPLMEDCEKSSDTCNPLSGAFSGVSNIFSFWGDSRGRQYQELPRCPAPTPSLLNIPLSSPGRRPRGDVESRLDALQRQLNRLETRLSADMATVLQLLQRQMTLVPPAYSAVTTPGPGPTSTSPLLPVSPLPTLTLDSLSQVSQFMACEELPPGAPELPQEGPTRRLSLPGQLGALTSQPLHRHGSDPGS
Chain of UniProt P0A4Q0 (whole entry, looked up): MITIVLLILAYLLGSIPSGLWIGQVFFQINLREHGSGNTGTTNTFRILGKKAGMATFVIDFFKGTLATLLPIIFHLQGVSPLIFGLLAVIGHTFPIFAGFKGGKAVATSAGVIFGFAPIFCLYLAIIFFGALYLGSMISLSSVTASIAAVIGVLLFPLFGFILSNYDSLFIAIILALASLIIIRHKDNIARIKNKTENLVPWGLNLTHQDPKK
Chain of UniProt P28072 (whole entry, looked up): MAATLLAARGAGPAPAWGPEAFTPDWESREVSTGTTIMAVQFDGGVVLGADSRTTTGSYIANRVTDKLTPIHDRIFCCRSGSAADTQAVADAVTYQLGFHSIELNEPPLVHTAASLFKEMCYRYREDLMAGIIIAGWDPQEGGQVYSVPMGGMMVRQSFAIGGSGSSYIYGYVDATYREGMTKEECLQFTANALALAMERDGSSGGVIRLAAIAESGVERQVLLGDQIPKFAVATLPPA

SMILES | target | assay | system | setting | IC50
CC(=O)c1cc(O)c2ccccc2c1O | GP1 NS5 methyltransferase domain | IC50-disp | – | – | 5.7 µM
O=C(CCCOc1ccc(Cl)cc1)NC1CCOC1=O (stereo not shown) | qscR ligand-binding domain | ligand binding, FRET displacement | – | ligand-binding domain 5 nM, with: fluorescent ligand 2 µM | 0.212 µM
O=C(O)CC(F)(F)C(=O)N1N=C(c2c(-c3ccc(Cl)cc3)c3ccccc3[nH]c2=O)C[C@H]1c1ccc(Cl)cc1 | Grin1/Grin2b/Glutamate receptor ionotropic, NMDA 2D (Rattus norvegicus, UniProt P35439+Q00960+Q62645) | ion current, inhibitor, two-electrode voltage clamp | Xenopus oocytes | with: glycine and glutamate | 0.093 µM
Cn1c(=O)n(CCC(C)(C)O)c2cc(Nc3nc(-n4cccn4)ncc3Cl)ccc21 | BCL6 | – | – | – | 0.59 µM
COCCn1c2nc(=O)n(-c3ccccc3)c(=O)c-2nc2ccccc21 | GP1 NS5 methyltransferase domain | IC50-HTRF | – | – | 12.2 µM
CC(=O)O[C@@]12[C@H](O)[C@@H](C)[C@@]3(O)[C@@H](C=C(CO)C[C@]4(O)C(=O)C(C)=C[C@@H]34)[C@@H]1C2(C)C | Protein unc-13 homolog A (Unc13a, Rattus norvegicus, UniProt Q62768) | inhibitor | – | – | 3.95 ± 1.2 µM
CSc1ncc(Cl)c(Nc2ccc3c(c2)n(CCC(C)(C)O)c(=O)n3C)n1 | BCL6 | – | – | – | 0.73 µM
CCCCCCCCCCCC(=O)N[C@H]1CCOC1=O | qscR ligand-binding domain | ligand binding, FRET displacement | – | ligand-binding domain 5 nM, with: fluorescent ligand 2 µM | 0.0399 µM
Cn1c(=O)n(CCC(C)(C)O)c2cc(Nc3nc(N4CCCCC4)ncc3Cl)ccc21 | BCL6 | – | – | – | 1.08 µM and 0.94 µM
O=C1c2ccccc2C(=O)C1C(=O)C(c1ccccc1)c1ccccc1 | NR1H3 | receptor activity, inhibitor | cells | – | 35.7 ± 35.5 µM
Cn1c(=O)n(CCC(C)(C)O)c2cc(Nc3c(Cl)cncc3Cl)ccc21 | BCL6 | – | – | – | 22.7 µM and 53.9 µM and 41.1 µM
Cn1c(=O)ccc2ccc(F)c(CCNC[C@H]3CN(c4ccc5c(n4)NC(=O)CO5)C(=O)O3)c21 | DNA topoisomerase 4 subunit A, with ParE subunit (Escherichia coli K-12, UniProt P0AFI2) | decatenation activity, inhibitor | – | – | 0.03 µM
Cn1c(=O)n(C)c2cc(Nc3cc(SCc4ccccc4)ncn3)ccc21 | BCL6 | – | – | – | 57 µM and 114 µM and 53 µM
Cc1c([C@H](C)[C@@H]2NC[C@@H](C)C[C@H]2O)ccc2c1C[C@H]1[C@H]2CC=C2C[C@@H](O)CC[C@@]21C | Nuclear receptor ROR-gamma, RORγt ligand-binding domain (RORC, Homo sapiens, UniProt P51449) | co-activator peptide binding, inhibitor, HTRF | – | 2 h, RORγt LBD 100 nM, with: SRC1-2 peptide 100 nM | 19.8 ± 1.36 µM
CCCC(=O)CC(=O)N[C@H]1CCOC1=O | qscR ligand-binding domain | ligand binding, FRET displacement | – | ligand-binding domain 5 nM, with: fluorescent ligand 2 µM | 30.3 µM
CN1Cc2cc(Cl)ccc2-n2c(nnc2C2CCN(c3ccccn3)CC2)C1 | AVPR1B (Homo sapiens, UniProt P47901) | binding | – | – | > 10 µM
Cn1c(=O)n(CCC(C)(C)O)c2cc(Nc3ccncc3Cl)ccc21 | BCL6 | – | – | – | 0.82 µM and 0.89 µM and 0.93 µM and 1.19 µM
C[C@@H]1CN(Cc2ccc(F)cc2)CCN1C(=O)COc1ccc(Cl)cc1NC(N)=O | RORC (Homo sapiens, UniProt P51449) | reporter gene, inhibitor, GAL4 dual-luciferase reporter | HEK293T | 24 h | 4.97 ± 2.19 µM
CCCCOc1ccc(C(=O)CCN2CCCCC2)cc1 | DRD4 (Homo sapiens, UniProt P21917) | radioligand binding, inhibitor | CHO-K1 | with: [3H]spiperone | 4.11 µM

SMILES | target | assay | system | setting | IC50
CO/N=C1\C[C@]2(C[C@@H]3C[C@@H](C/C=C(\C)C[C@@H](C)/C=C/C=C4\CO[C@@H]5[C@H](O)C(C)=C[C@@H](C(=O)O3)[C@]45O)O2)O[C@H](/C(C)=C/C(C)C)[C@H]1C | NR1H3 | receptor activity, inhibitor | cells | – | 5.31 ± 3.45 µM
O=[N+]([O-])c1ccc(O)c(Cc2cc([N+](=O)[O-])ccc2O)c1 | SLC25A4 (Homo sapiens, UniProt P12235) | ADP/ATP exchange, inhibitor | yeast mitochondria | isoform ANT1 | 5.8 µM
CCOP(=O)(OCC)Oc1cc(C)nc(C(C)C)n1 | carboxylesterase (mouse) | – | PON1+/+ mouse liver homogenate | 30 min, 23 °C | 0.0039 ± 0.0006 µM
C[C@H]1CN(c2n[nH]c3nc(N[C@H]4CC[C@H](NS(=O)(=O)CCC(F)(F)F)CC4)ncc23)CCO1 | Dynactin subunit 2 (DCTN2, Homo sapiens, UniProt Q13561) | biochemical | – | – | ≥ 20 µM
Nc1ncnc2c1c(Oc1cc(C(F)(F)F)ncn1)nn2C1CC1 | CDPK1 (Toxoplasma gondii, UniProt Q9BJF5) | enzyme activity, inhibitor | – | – | > 20 µM
O=[N+]([O-])c1cc(-n2nccn2)ccc1NCCCCCCN[C@H]1C[C@](O)(CO)[C@@H](O)[C@H](O)[C@H]1O | Mogs (Mus musculus, UniProt Q80UM7) | enzyme activity, inhibitor | – | with: trisaccharide substrate | 0.05 µM
COc1ncccc1-c1cnn2ccc(N3CCN(C(=O)OC(C)C)CC3)nc12 | HRH2 | liability screen | – | – | > 30 µM
CCCCCCCCCCCCCCCC(=O)NP(=O)(O)O | Glycerol-3-phosphate acyltransferase (plsY, Streptococcus pneumoniae, UniProt P0A4Q0) | inhibitor | – | – | 82 µM
O=C1c2ccccc2C(=O)C1C(=O)C(c1ccccc1)c1ccc(Cl)cc1 (stereo not shown) | NR1H3 | receptor activity, inhibitor | cells | – | 24.3 ± 12.5 µM
Cn1c(=O)n(CCC(C)(C)O)c2cc(Nc3nc(N4CC5CCC(C4)C5(F)F)ncc3Cl)ccc21 | BCL6 | – | – | – | 0.75 µM and 0.47 µM and 1.01 µM
O=C(O)C1=CCCN(CCON=C(c2ccccc2)c2ccccc2)C1 | Slc6a1 (Rattus norvegicus, UniProt P23978) | inhibitor | – | rat, concurrent measurement | 0.21 µM
Oc1cccc(CCN(CCc2ccccc2)CC2CC2)c1 | Oprk1 (Mus musculus, UniProt P33534) | cAMP inhibition, agonist, GloSensor luminescence | HEK293 | room temperature, with: 30 µM forskolin | 0.0095 µM
Cc1ccc(S(=O)(=O)Nc2ccc(-c3n[nH]c(=S)o3)cc2)cc1 | P2X purinoceptor 7 (P2RX7, Homo sapiens, UniProt Q99572) | calcium mobilization, antagonist | MCF7 transfected with P2RX7 | with: 100 µM BzATP | 1.09 µM
COc1cc(Nc2ncc(F)c(Nc3ccc4c(n3)NC(=O)C(C)(C)O4)n2)cc(OC)c1OC | HRH2 | – | – | – | > 10 µM
[Fe+2].[O-][Cl+3]([O-])([O-])[O-].[O-][Cl+3]([O-])([O-])[O-] | Proteasome subunit beta type-6, caspase-like site (PSMB6, Homo sapiens, UniProt P28072) | caspase-like activity, inhibitor, purified 20S proteasome | – | pH 7.4, with: 20 µM Z-LLE-AMC | > 1000 µM
COCO[C@H]1C[C@H]2OC(C)(C)OC[C@]23[C@@H]2[C@@H](CC[C@]3(O)C1)[C@@]1(OCOC)CC[C@H](CO)[C@@]1(C)C[C@H]2OCOC | KCNH2 (Homo sapiens, UniProt Q12809) | inhibitor | – | – | > 62.5 µM
Cn1c(=O)n(CCC(C)(C)O)c2cc(Nc3nc(N4CCOCC4)ncc3Cl)ccc21 | BCL6 | – | – | – | 0.34 µM and 0.2 µM
CNC(C)Cc1ccc2nsnc2c1 (stereo not shown) | SLC29A4 (Homo sapiens, UniProt Q7RTT9) | – | – | – | 17 ± 8.3 µM

Some of these lines once more:
SMILES | target | assay | system | setting | IC50
CN1Cc2cc(Cl)ccc2-n2c(nnc2C2CCN(c3ccccn3)CC2)C1 | AVPR1B (Homo sapiens, UniProt P47901) | binding | – | – | > 10 µM
Cn1c(=O)n(CCC(C)(C)O)c2cc(Nc3ccncc3Cl)ccc21 | BCL6 | – | – | – | 0.82 µM and 0.89 µM and 0.93 µM and 1.19 µM
Nc1ncnc2c1c(Oc1cc(C(F)(F)F)ncn1)nn2C1CC1 | CDPK1 (Toxoplasma gondii, UniProt Q9BJF5) | enzyme activity, inhibitor | – | – | > 20 µM
COCO[C@H]1C[C@H]2OC(C)(C)OC[C@]23[C@@H]2[C@@H](CC[C@]3(O)C1)[C@@]1(OCOC)CC[C@H](CO)[C@@]1(C)C[C@H]2OCOC | KCNH2 (Homo sapiens, UniProt Q12809) | inhibitor | – | – | > 62.5 µM
C[C@@H]1CN(Cc2ccc(F)cc2)CCN1C(=O)COc1ccc(Cl)cc1NC(N)=O | RORC (Homo sapiens, UniProt P51449) | reporter gene, inhibitor, GAL4 dual-luciferase reporter | HEK293T | 24 h | 4.97 ± 2.19 µM
CCOP(=O)(OCC)Oc1cc(C)nc(C(C)C)n1 | carboxylesterase (mouse) | – | PON1+/+ mouse liver homogenate | 30 min, 23 °C | 0.0039 ± 0.0006 µM
